Measurements pooled from the literature.
Each numbered part is a random draw from the data of one study; scales do not carry over between parts.

Sample 1
Target: Interferon regulatory factor 7, full length, phosphomimetic (IRF7, Homo sapiens, UniProt Q92985, residues 1-503, S101K/S471D/S472D/S475D/S476D/S477D/S483D/S484D/S487D)
Method: protein-binding microarray
Form: double-stranded DNA, one strand shown
Matrix: in vitro
Tested at: 250 nM
Setting: 60-bp whole probe
With: salmon DNA 0.4 mg/ml
Relative to: random background probes
Reading: higher = stronger binding
Shared flanks, not repeated: GCCTAGCAC … GTCTTGATTCGCTTGACGCTGCTG
Construct (chain): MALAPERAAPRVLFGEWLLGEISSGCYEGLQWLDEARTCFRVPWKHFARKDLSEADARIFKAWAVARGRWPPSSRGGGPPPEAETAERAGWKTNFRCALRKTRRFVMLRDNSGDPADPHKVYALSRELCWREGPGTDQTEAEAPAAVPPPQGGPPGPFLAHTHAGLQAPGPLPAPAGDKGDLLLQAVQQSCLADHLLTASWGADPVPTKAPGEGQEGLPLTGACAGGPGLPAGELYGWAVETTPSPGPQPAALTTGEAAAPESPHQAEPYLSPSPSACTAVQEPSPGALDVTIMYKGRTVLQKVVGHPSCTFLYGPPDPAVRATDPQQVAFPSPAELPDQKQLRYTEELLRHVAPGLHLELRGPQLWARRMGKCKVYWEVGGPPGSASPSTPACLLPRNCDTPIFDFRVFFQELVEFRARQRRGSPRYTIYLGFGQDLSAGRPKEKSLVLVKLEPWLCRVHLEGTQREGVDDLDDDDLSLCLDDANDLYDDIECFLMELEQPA
Strand	log fluorescence [z-score]
GACGGTTTAGGTTCCGGGACGTGCTAG	1.02
CTAGTTCTGCTTTGCCTTCAGTGCTAG	3.62
TTAGATCTCCTTATCCTTTAGTGCTAG	0.306
GACGATTTCAGTTCCCAGACGTGCTAG	0.982
TTAGGTAACGACTATCGGTTAGTGCTA	0.0513
GACGGACTCGGTCTCGGGACGTGCTAG	0.593
TTAGGACTGGACCCTGGGTTAGTGCTA	-0.377
GAAGATTTCAATTAAAAAAAGTGCTAG	0.304
TTAGGACTGCTACTCCTTTAGTGCTAG	-0.119
TTAGGTATCGGACTGGGTTAGTGCTAG	0.15

Sample 2
Target: Centromere-binding protein 1, full length, N-terminal tag (CBF1, Saccharomyces cerevisiae, UniProt P17106, residues 1-351)
UniProt P17106, sequence (whole entry, looked up): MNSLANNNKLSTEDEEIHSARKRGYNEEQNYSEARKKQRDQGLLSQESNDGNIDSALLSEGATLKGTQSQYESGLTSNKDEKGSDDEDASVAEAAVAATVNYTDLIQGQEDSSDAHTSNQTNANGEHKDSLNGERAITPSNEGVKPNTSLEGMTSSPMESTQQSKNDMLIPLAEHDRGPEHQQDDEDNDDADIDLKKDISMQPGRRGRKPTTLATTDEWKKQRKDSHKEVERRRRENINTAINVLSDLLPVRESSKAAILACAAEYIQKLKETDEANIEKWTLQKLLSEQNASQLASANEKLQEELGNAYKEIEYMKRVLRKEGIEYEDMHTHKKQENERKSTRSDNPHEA
Method: protein-binding microarray
Form: double-stranded DNA, one strand shown
Matrix: in vitro
Tested at: 0.8 µM
Setting: whole 60-bp probe, no competitor
Reading: higher = stronger binding
Shared flanks, not repeated: … GTCTTGATTCGCTTGACGCTGCTG
Strand	fluorescence intensity [a.u.]
CTAAGACCGAATGAACATGTGCCTTTGCATTACTTC	811
GAAAAAAAATAAAAGCATGTGCGAACTCTAGTTTAG	696
GAATATACGTCTATTAAGGTGACTGACAAGGATTAG	518
GAAATCGTTTACAGCCATGTGAGGCAGTTACTTTAG	587
CCTAACTACTATAATTGTGACACATAGCTTCGTACA	577
GAACGGGAACGAACGTTCGTGCGGGGTGATGGTTAG	508
GAATAAAACACCCACTACATCAGCTCGATGATGTAG	500
CTAATATTTCATTACATGGTGATGCTTTCTTTTTTC	495
GAAAAGGGTAAGAGTGACATCATAATTAGGGGTTAG	551

Sample 3
Target: Hepatocyte nuclear factor 3-alpha (Foxa1, Mus musculus, UniProt P35582, residues 1-468, full length assumed)
Method: EMSA with sequencing
Form: double-stranded DNA, one strand shown
Matrix: in vitro
Tested at: 10 and 20 nM
Setting: whole designed probe, mean of two concentrations, ends assumed
Relative to: negative control set to 0
Reading: higher = stronger binding
Shared flanks, not repeated: GTGAGCGGTGCCCATTGATGGGGAAC … TTTCACTGGGATCGTGGGGAC
Residues (chain): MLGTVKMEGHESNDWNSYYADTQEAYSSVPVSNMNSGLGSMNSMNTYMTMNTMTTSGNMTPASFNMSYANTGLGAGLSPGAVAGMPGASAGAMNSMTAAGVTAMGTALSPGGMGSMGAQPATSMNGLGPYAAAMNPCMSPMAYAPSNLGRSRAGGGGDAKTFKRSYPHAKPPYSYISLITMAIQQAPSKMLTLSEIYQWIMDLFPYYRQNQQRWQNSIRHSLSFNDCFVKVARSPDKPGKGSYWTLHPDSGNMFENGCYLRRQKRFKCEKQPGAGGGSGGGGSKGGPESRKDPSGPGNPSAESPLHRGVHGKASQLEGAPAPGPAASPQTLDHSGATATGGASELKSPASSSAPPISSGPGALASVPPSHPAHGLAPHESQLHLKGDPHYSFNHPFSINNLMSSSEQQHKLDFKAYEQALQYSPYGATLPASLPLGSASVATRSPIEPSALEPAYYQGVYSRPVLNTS
Strand	normalised bound fraction [ratio]
ATCTTCCCCCTCTTCCTTGCCCCACCAGCTCACCTTCCCGGGTTATTTGCACAAAGGAAAATAAATAAAGCCGGCATTCGTTAACCCTCTTCTGGCGCAAACTGCTGTTTGCTCTGCATCTAACATGGTCCTTACGCGAGGCGTGGCTCCGGGAGAGCAAAGCACCGTGTCAGGCGCATGATCCGGGGTGGCC	0.374
CCACTACTTTCTTGGCCACCGCTTCCTGGAGCTTGTGTTCCTGGAAGCCAGCCATAAATAAGCCGGCCATAAACGAGGGTAAACAGGTGCCTGAGTAAACACACCAGAGCAAATGAGTCATATGGGCCGGCAGAGATGAACCTGGGGCCATGGCGGGTGTAGGGGTTGGGTGGGGAGAGGATGTCCTCTGAAA	0.455
ATGAAGGGCTGCCAGTGTAATTTGAACCTCAAATAAACAACAGATAAAACTGTAGTATAAGTAATTGCACAACTGTCCCATATACGATCTTTTTGTTTGCCTAATCTGGCAAAGATATTGACTTAACACACACTAATCTGTTGACAGGTAGGTGAAATATTTGAACTTCTACGTTGCTTCTCTAATCCTGTCC	0.391
CCATATTAAGCCATAAATGTGAGTTGCTGTAAAATAAAAAGTAATAAAGTATTTAAAGAGAAAATAATTTCTGTTGAGATTTTAAAGTTTTTCCTGTTTACATTGTTAGTCAATAAATATCTTTAATTCAAAGGTTAAGTTTATAGGATAATCCTCCTTGAGAAGGGAAGGCATATCTAAGTGTTAACAAAAA	0.305
ATCTTCCCCCTCTTCCTTGCCCCACCAGCTCACCTTCCCGGGTTATTTGCAGATAGGAAAATAAATAAAGCCGGCATTCGTTAACGCAGTTCACGCGCATACTGCTGTTTGCTCTGGATGAATCATGGTCCTTTGGCGAGGCGTGGCTCCGGGAGAGCAAAGCACCGTGTCAGGGCCATGATCCGGGGTGGCC	0.344
CATTAGAGTCAAAGTTGTTAAGGGGAGCTAGTCATAGCTACCACGTGGCCAGGCATGTGGAACCAGACACATGAATCATCACAGGCACACATCTATTTACTTTAAATAATGCTGACAACCTAGTTCATAGTGACACACTACTTGAGATATATAGAATAACATTATTACCCAGTAAGTATGTGAACATTCCGAT	0.39
ACAATAATTATAATATATGTAAAGGTACTTAGACGTTAATTAAAATTGCTCCATTTGAGTATACACATAAATGTGATAGCCTTTATTATCTCCCTGTTTACATATGAATGGCTTTTTTTCTAGCCCAGTGGACTAATAAATAAATCTCTGTAACTAGTAGGGTTTAGCTATGAAAGTCTGTTGCTAATGCCCC	0.271
ATCTTCCCCCTCTTCCTTGCCCCACCAGCTCACCTACGGGGGTTATTTGCACAAAGGAAAATAAATAAAGCCGGCATTCGTTAACCCTCTTCACGCGCATACTGCTGTTTGCTCTGGATGAATCATGGTCCTTTGGCGACGCCAGGCTCCGGGAGAGCAAAGCACCGTGTCAGGGCCATGATCCGGGCTCGCC	0.379

Mixed results
Molecule	target	assay	test system	conditions	how to read	measurement	value
PhoQ, residues 284 288 289 292 302 303 SACGEM	PhoP, residues 12 14 15 18 19 TPLRH (Escherichia coli, UniProt P23836)	Sort-seq, item: YFP reporter	E. coli	PhoQ-PhoP variant library, with: 10 µM Mg2+	relative to: high Mg2+ state, higher = stronger signaling	fold induction	3.45
